# Measurements of several laboratories.
# ± marks the error that the study gave.
# YWHAG/RELA phospho-Ser45 p65 peptide: YWHAG/RELA, phospho-Ser45 p65 peptide (Homo sapiens, UniProt P61981+Q04206)
# Sequence of UniProt Q04206 (whole entry, looked up): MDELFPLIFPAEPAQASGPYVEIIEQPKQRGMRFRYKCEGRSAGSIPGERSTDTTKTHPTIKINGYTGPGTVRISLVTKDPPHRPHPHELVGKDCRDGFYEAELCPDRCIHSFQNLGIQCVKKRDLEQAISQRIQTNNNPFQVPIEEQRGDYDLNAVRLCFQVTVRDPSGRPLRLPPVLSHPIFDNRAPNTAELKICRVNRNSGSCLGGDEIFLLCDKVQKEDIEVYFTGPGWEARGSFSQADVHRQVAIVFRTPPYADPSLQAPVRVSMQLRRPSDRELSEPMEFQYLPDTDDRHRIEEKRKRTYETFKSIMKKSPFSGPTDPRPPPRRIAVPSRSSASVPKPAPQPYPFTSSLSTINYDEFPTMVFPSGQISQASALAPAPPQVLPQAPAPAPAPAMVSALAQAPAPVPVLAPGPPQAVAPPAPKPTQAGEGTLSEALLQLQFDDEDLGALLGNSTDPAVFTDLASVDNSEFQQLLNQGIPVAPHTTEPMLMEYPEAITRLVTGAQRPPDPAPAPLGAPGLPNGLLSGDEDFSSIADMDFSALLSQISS
# Sequence of UniProt P61981 (whole entry, looked up): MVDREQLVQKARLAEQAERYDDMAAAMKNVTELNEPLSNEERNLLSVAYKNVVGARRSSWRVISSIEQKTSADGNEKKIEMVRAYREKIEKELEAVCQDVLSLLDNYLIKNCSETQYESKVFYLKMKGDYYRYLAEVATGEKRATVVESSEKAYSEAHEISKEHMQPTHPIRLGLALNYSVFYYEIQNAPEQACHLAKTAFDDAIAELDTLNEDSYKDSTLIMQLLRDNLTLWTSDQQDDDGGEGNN
# PPARA: Peroxisome proliferator-activated receptor alpha (PPARA, Homo sapiens, UniProt Q07869)
# Sequence of UniProt Q07869 (whole entry, looked up): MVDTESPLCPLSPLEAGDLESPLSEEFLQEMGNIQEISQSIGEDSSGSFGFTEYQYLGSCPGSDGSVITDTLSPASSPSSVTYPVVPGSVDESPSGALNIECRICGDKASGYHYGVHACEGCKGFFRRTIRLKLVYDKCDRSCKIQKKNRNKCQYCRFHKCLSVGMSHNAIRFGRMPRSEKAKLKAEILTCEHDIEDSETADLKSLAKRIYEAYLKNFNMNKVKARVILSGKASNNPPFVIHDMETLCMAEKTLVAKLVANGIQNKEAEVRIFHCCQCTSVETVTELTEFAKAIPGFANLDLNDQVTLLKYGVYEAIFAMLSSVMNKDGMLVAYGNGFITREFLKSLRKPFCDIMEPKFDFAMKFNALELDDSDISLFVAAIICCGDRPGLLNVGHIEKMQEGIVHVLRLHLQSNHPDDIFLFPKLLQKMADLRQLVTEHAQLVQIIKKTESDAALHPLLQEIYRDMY
# Nuclear receptor subfamily 2 group C member 2 ligand-binding domain: Nuclear receptor subfamily 2 group C member 2, ligand-binding domain (Homo sapiens, UniProt P49116)
# Sequence of UniProt P49116 (whole entry, looked up): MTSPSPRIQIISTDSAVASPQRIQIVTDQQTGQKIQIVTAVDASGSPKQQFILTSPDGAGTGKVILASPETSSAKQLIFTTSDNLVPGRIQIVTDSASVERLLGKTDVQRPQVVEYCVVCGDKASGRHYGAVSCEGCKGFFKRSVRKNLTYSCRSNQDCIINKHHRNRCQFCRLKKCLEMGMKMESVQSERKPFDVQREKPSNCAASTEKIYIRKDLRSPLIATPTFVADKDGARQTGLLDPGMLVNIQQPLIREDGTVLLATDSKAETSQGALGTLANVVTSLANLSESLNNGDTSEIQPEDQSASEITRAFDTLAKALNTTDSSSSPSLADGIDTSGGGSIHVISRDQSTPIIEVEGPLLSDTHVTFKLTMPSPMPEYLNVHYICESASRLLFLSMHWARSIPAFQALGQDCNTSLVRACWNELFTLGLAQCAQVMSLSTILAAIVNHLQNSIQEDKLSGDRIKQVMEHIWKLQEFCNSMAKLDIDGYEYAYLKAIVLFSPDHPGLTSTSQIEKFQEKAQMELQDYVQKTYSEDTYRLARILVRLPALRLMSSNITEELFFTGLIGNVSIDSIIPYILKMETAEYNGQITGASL
# PKLR: Pyruvate kinase PKLR (PKLR, Homo sapiens, UniProt P30613)
# Sequence of UniProt P30613 (whole entry, looked up): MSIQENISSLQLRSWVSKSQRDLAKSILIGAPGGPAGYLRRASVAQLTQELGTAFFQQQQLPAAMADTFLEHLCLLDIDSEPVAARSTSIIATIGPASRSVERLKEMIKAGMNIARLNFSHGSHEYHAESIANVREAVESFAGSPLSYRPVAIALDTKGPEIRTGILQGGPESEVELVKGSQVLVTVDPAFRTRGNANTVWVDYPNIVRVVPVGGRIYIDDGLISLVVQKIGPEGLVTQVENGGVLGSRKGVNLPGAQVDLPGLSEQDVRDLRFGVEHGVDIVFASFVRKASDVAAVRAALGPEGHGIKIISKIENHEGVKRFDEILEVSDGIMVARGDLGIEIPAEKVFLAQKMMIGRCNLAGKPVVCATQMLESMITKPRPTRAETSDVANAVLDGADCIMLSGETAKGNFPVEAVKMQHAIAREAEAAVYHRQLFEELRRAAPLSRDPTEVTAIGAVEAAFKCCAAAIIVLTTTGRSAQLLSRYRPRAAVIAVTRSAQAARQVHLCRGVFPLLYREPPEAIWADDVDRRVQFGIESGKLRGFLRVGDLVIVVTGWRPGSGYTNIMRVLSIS
# Sequence of UniProt Q704Y3 (whole entry, unmodified, looked up): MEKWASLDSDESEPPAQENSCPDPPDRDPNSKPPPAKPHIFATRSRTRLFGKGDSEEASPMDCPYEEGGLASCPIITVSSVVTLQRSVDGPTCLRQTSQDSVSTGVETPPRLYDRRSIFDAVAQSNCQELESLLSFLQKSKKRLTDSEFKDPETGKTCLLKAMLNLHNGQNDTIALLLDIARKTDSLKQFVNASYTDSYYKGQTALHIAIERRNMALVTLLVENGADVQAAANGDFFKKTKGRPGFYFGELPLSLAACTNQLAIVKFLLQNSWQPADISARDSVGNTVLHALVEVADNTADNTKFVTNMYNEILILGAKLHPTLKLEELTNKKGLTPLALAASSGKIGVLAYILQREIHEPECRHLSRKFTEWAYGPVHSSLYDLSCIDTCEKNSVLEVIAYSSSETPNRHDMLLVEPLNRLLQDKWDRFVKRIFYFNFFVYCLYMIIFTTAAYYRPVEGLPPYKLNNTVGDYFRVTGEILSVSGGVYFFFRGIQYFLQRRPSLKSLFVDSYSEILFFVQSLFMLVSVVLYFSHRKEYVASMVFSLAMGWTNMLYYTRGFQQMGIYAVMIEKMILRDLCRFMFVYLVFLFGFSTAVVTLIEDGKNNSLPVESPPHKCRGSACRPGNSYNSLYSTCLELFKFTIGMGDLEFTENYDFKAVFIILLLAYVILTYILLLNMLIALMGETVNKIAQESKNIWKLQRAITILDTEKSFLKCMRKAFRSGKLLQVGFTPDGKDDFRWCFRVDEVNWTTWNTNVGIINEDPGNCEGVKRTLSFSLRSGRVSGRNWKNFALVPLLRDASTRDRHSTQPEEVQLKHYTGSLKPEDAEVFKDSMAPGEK
# Sequence of UniProt P34981 (whole entry, looked up): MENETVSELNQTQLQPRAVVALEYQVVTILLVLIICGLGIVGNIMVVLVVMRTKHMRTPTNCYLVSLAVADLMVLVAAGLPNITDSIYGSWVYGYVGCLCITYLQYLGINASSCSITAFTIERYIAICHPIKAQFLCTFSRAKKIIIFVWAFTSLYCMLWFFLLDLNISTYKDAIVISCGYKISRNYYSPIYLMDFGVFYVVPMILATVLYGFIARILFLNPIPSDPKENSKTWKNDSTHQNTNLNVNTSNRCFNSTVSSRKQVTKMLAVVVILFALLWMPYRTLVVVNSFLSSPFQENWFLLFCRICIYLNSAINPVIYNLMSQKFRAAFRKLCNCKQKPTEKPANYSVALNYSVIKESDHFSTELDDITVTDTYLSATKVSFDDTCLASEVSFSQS
# Sequence of UniProt P10145 (whole entry, looked up): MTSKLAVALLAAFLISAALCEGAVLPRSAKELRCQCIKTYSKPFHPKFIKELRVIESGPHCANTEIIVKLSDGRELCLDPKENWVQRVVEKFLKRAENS
# Sequence of UniProt P08913 (whole entry, looked up): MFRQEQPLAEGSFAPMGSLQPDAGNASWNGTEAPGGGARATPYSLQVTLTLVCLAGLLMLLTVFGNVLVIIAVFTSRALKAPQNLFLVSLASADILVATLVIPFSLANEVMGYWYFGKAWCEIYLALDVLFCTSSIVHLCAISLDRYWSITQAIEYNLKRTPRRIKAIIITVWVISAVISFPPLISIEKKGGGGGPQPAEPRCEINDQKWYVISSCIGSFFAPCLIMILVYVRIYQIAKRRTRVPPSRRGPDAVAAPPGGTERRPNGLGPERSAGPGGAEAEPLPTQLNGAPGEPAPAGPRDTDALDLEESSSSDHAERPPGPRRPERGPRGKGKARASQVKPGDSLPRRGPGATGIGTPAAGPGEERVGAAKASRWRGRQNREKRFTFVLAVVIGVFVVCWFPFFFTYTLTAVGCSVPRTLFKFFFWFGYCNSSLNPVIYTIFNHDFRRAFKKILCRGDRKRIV
# Sequence of UniProt Q8N884 (whole entry, looked up): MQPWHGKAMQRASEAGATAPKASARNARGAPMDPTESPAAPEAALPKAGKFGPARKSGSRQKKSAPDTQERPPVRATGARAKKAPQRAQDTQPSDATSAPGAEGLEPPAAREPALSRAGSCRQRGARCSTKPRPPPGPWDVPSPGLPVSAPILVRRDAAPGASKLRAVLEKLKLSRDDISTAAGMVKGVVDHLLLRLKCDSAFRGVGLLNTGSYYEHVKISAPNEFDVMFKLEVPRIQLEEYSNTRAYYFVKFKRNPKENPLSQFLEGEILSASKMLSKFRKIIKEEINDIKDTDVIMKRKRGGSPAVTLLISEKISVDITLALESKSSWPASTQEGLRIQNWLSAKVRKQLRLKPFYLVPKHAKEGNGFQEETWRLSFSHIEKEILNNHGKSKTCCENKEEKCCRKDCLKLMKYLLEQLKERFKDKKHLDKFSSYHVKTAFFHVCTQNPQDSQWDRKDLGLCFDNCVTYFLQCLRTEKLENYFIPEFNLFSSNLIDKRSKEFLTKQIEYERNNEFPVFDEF
SMILES,target,test,test system,setting,endpoint,value
Nc1ccc(CNc2ccncc2)c(F)c1,"ADRA2A (Homo sapiens, UniProt P08913)","agonist, FLIPR reporter",reporter cell line,,EC50,3.5 µM
CCCCCCCC/C=C\CCCCCCCC(=O)NCCc1ccc(O)c(O)c1,"Trpv1 (Mus musculus, UniProt Q704Y3, D510E)","ion current, agonist, whole-cell patch clamp",,"24 °C, D510E, +80 mV",EC50,0.33 ± 0.05 µM
CN(c1cc(C=O)ccc1[N+](=O)[O-])C1CCOCC1,YWHAG/RELA phospho-Ser45 p65 peptide,"ternary complex formation, stabilizer, fluorescence anisotropy",,,EC50,> 1000 µM
CCO[C@@H](Cc1ccc(OCCn2c(C)ccc2-c2ccc(SC)cc2)cc1)C(=O)O,PPARA,"receptor activation, agonist, cell-based",,,EC50,0.3 µM
C[C@]12CC[C@@H]3c4ccc(O)cc4CC[C@H]3[C@@H]1C[C@@H](O)[C@@H]2O,Nuclear receptor subfamily 2 group C member 2 ligand-binding domain,SPR imaging,,,Kd,0.000166 µM
COC1CN(c2cc(C=O)ccc2[N+](=O)[O-])C1,YWHAG/RELA phospho-Ser45 p65 peptide,"ternary complex formation, stabilizer, fluorescence anisotropy",,,EC50,> 1000 µM
CC[C@H](C)[C@H](NC(=O)[C@@H]1CCCN1C(=O)CNC(=O)[C@H](Cc1ccccc1)NC(=O)[C@H](CC(N)=O)NC(=O)[C@H](CC(N)=O)NC(=O)[C@H](CO)NC(=O)[C@H](CO)NC(=O)[C@H](Cc1c[nH]cn1)NC(=O)[C@H](CCCNC(=N)N)NC(=O)[C@H](CC(C)C)NC(=O)[C@H](Cc1ccccc1)NC(=O)[C@H](CCC(=O)O)NC(=O)[C@H](C)NC(=O)[C@H](CC(C)C)NC(=O)[C@H](CCCNC(=N)N)NC(=O)[C@H](CCC(N)=O)NC(=O)[C@@H](NC(=O)[C@H](C)NC(=O)[C@@H]1CSSC[C@H](NC(=O)[C@H](CCCCN)NC(=O)CC[C@H](NC(=O)CCCCCCCCCCCCCCCCCCC(=O)O)C(=O)O)C(=O)N[C@@H](CC(N)=O)C(=O)N[C@@H]([C@@H](C)O)C(=O)N[C@@H](C)C(=O)N[C@@H]([C@@H](C)O)C(=O)N1)[C@@H](C)O)C(=O)N[C@@H](CC(C)C)C(=O)N1CCC[C@H]1C(=O)N1CCC[C@H]1C(=O)N[C@H](C(=O)N[C@@H](CC(N)=O)C(=O)N[C@H](C(=O)NCC(=O)N[C@@H](CO)C(=O)N[C@@H](CC(N)=O)C(=O)N[C@H](C(=O)N1CCC[C@H]1C(N)=O)[C@@H](C)O)C(C)C)[C@@H](C)O,"Calcitonin receptor, isoform a (CALCR, Homo sapiens, UniProt P30988)","reporter gene, agonist, CRE-luciferase",BHK expressing CTR,3 h,EC50,2.19e-06 µM
N#CC1CCN(C(=O)c2ccc(C=O)cc2)CC1,YWHAG/RELA phospho-Ser45 p65 peptide,"ternary complex formation, stabilizer, fluorescence anisotropy",,,EC50,> 1000 µM
NC(=O)[C@@H]1CCCN1C(=O)[C@H](Cc1cnc[nH]1)NC(=O)[C@@H]1CCC(=O)N1,"TRHR (Homo sapiens, UniProt P34981)","agonist, cell-based",,,EC50,0.00151 µM
CN1CC2c3ccccc3Oc3ccc(Cl)cc3C2C1 (centres unmarked),"5-hydroxytryptamine receptor 1A, with Goα S314K (HTR1A, Homo sapiens, UniProt P08908)",,,,EC50,0.0314 µM
COCCCOc1cc(C[C@@H](C[C@H](N)[C@@H](O)C[C@H](C(=O)NCC(C)(C)C(N)=O)C(C)C)C(C)C)ccc1OC,Nuclear receptor subfamily 2 group C member 2 ligand-binding domain,SPR imaging,,,Kd,0.00564 µM
CCCC(CCC)NC(=O)c1ccc2c(c1)OCO2,"T1R1/T1R3 (Homo sapiens, UniProt Q7RTX0+Q7RTX1)","receptor activation, agonist, luminescence",stably transfected cells,,EC50,1.6 µM
O=C(COP(=O)(O)O)[C@@H](O)[C@H](O)[C@H](O)COP(=O)(O)O,PKLR,"enzyme activity, activator",,"30 min, 24 °C, with: 0.125 mM PEP and 0.1 mM ADP",EC50,0.02 µM
CS(=O)(=O)c1ccccc1C=O,YWHAG/RELA phospho-Ser45 p65 peptide,"ternary complex formation, stabilizer, fluorescence anisotropy",,,EC50,> 1000 µM
CC1(C)Cc2c(sc(NC(=O)c3ccn[nH]3)c2C(N)=O)C(C)(C)O1,"cftr (Danio rerio, UniProt Q1LX78)","chloride current, activator, inside-out patch clamp",CHO cells transfected,,EC50,3.98 ± 1.74 µM
O=C(O)CCCc1cc2cc(Cl)ccc2n1S(=O)(=O)c1ccc2ncsc2c1,PPARA,"receptor activation, agonist, cell-based",,,EC50,3 µM
O=Cc1ccc([N+](=O)[O-])c(OC(=O)c2ccc(F)c(F)c2)c1,YWHAG/RELA phospho-Ser45 p65 peptide,"ternary complex formation, stabilizer, fluorescence anisotropy",,,EC50,> 1000 µM
Cc1ccc(NC(=O)c2cccc(N(C)C)c2)cc1NC(=O)c1ccc(O)cc1,"MAPK14 (Homo sapiens, UniProt Q16539)","thermal stabilization, binder, isothermal NanoLuc TSA","permeabilized HeLa, Nluc fusion",,EC50,13.4 µM
O=Cc1ccc(-n2cnc3ccccc32)nc1,YWHAG/RELA phospho-Ser45 p65 peptide,"ternary complex formation, stabilizer, fluorescence anisotropy",,,EC50,> 1000 µM
CO[C@H]1O[C@H](COS(=O)(=O)O)[C@@H](O[C@@H]2O[C@@H](C(=O)O)[C@@H](O[C@H]3O[C@H](COS(=O)(=O)O)[C@@H](O[C@@H]4O[C@H](C(=O)O)[C@@H](O[C@H]5O[C@H](COS(=O)(=O)O)[C@@H](O)[C@H](O)[C@H]5NS(=O)(=O)O)[C@H](O)[C@H]4O)[C@H](OS(=O)(=O)O)[C@H]3NS(=O)(=O)O)[C@H](O)[C@H]2OS(=O)(=O)O)[C@H](O)[C@H]1NS(=O)(=O)O,"Interleukin-8 (CXCL8, Homo sapiens, UniProt P10145)",fluorescence polarization competition,,"CXCL8 800 nM, 100% DW, with: TAMRA-labelled probe",EC50,26.3 ± 5.6 µM
Cc1nn(-c2nc3c(F)cc(F)cc3s2)c(O)c1C(c1ccc(C(F)(F)F)cc1)c1c(C)nn(-c2nc3c(F)cc(F)cc3s2)c1O,"Cyclic GMP-AMP synthase, catalytic domain; with DNA (CGAS, Homo sapiens, UniProt Q8N884)","cGAS phase separation, inhibitor",,,EC50,4.25 µM
CC(C)CN1CCN(c2cc(C=O)ccc2[N+](=O)[O-])CC1,YWHAG/RELA phospho-Ser45 p65 peptide,"ternary complex formation, stabilizer, fluorescence anisotropy",,,EC50,> 1000 µM
O=S1(=O)N=C(Oc2ccccc2)c2ccccc21,PKLR,"enzyme activity, activator",,"30 min, 24 °C, with: 0.125 mM PEP and 0.1 mM ADP",EC50,> 100 µM
CCCCC[C@H](O)/C=C/[C@H]1[C@H](O)CC(=O)[C@@H]1C/C=C\CCCC(=O)O,"PTGER1 (Homo sapiens, UniProt P34995, T186A)","IP1 accumulation, agonist",AD293,EP1 T186A mutant,EC50,0.0442 µM
NC(=O)c1ccccc1SC1=NS(=O)(=O)c2ccccc21,PKLR,"enzyme activity, activator",,"30 min, 24 °C, with: 0.125 mM PEP and 0.1 mM ADP",EC50,0.67 µM
COc1ccc2c(c1)nc(Cl)n2S(=O)(=O)c1ccc(C=O)cc1,YWHAG/RELA phospho-Ser45 p65 peptide,"ternary complex formation, stabilizer, fluorescence anisotropy",,,EC50,> 1000 µM

# Repeated from above:
SMILES,target,test,test system,setting,endpoint,value
COCCCOc1cc(C[C@@H](C[C@H](N)[C@@H](O)C[C@H](C(=O)NCC(C)(C)C(N)=O)C(C)C)C(C)C)ccc1OC,Nuclear receptor subfamily 2 group C member 2 ligand-binding domain,SPR imaging,,,Kd,0.00564 µM
CCCC(CCC)NC(=O)c1ccc2c(c1)OCO2,"T1R1/T1R3 (Homo sapiens, UniProt Q7RTX0+Q7RTX1)","receptor activation, agonist, luminescence",stably transfected cells,,EC50,1.6 µM
